Measured values collected from several papers.
± marks the error that the study gave.

`N#Cc1ccc(-c2ccc(-c3ccco3)o2)cc1F` gave an inhibition of 82 ± 8.49% (Salmonella enterica; sodium azide mutagenicity; TA1535; 20 µM, 48 h, together with: sodium azide 2 µg/plate after pre-exposure).
For `CC(=O)N1CCCC1C(=O)NC(CO)C(O)c1ccc([N+](=O)[O-])cc1` (stereo not drawn), the Kd was 10 ± 1.5 µM (Escherichia coli 70S ribosome; binding, fluorescence polarization; together with: BODIPY-erythromycin 4 nM).
`N#Cc1ccc(-c2ccc(-c3ccco3)o2)c(F)c1` gave an inhibition of 103% (Salmonella enterica; sodium azide mutagenicity; TA1535; 20 µM, 48 h, together with: sodium azide 2 µg/plate after pre-exposure).
`O=c1c(O)c(-c2cc(O)c(O)c(O)c2)oc2cc(O)cc(O)c12` has an IC50 of greater than 10 µM (influenza virus; viral replication; MDCK; 72 h).
For `N=C(N)c1ccc(-c2ccc(-c3cccs3)o2)c(F)c1`, the mutant frequency was 72% (Salmonella enterica; TA1535; 10 µM, 48 h, together with: sodium azide after pre-exposure; relative to: sodium azide alone).
`O=C(CNC(=O)c1cccc2ccccc12)Nc1ccccc1Oc1ccccc1` gave a GI50 of roughly 0.33 µM (NCI60 panel, 60 cell lines; median over cell lines).
For `N=C(N)c1ccc(-c2ccc(-c3ccco3)o2)cc1F`, the inhibition was 10% (Salmonella enterica; sodium azide mutagenicity; TA1535; 10 µM, 48 h, together with: sodium azide 2 µg/plate after pre-exposure).
`CC(=O)C[C@@H](c1ccccc1)c1c(O)c2ccc(O)cc2oc1=O` gave a Kss of 2850 µM (UGT; item: 4-glucuronide; human liver microsomes; second binding site).
For `CCc1ccc2c(O)c3c(cc2c1C(=O)OC)C(=O)c1c(O)ccc(O)c1C3=O`, the IC50 was greater than 10 µM (influenza virus; viral replication; MDCK; 72 h).
The inhibition of `N#Cc1ccc(-c2ccc(-c3cccs3)o2)c(F)c1` is reported as 77% (Salmonella enterica; sodium azide mutagenicity; TA1535; 20 µM, 48 h, together with: sodium azide 2 µg/plate after pre-exposure).
For `CNC(C)Cc1ccc2c(c1)OCO2` (racemic), the mood rating was 5 (visual analog scale, item: Sedated; human; oral, 1.5 mg/kg, mean over session, unit not given; relative to: pre-dose baseline).
For `N#Cc1ccc(-c2ccc(-c3cccs3)s2)cc1F`, the mutant frequency was 25% (Salmonella enterica; TA1535; 10 µM, 48 h, together with: sodium azide co-exposure; relative to: sodium azide alone).
With `ClCCN(CCCl)c1ccc(CCNc2ccnc3cc(Cl)ccc23)cc1` the EC50 was 3.6 ± 0.83 µM (Dengue virus type 2; viral replication, Rluc reporter replicon; BHK-21 DENV2 replicon cells; 24 h).
`CCCNc1nccnc1C(=O)O` gave an IC50 of 200 µM (Mycobacterium tuberculosis variant bovis BCG; microbial growth; ATCC35734 BCG; 5 days).
`Br.CN=c1nc(-c2ccccc2)n(-c2ccccc2)s1` has an efficacy of 85% (HEK293 expressing MOR; morphine-induced cAMP overshoot, HTRF cAMP; 1 µM, together with: NKH 477 25 nM; relative to: morphine control).
`CP(=O)(O)CCC(N)C(=O)O` (stereo not drawn) has a herbicidal activity of 100% (Eleusine indica; 125 g/ha, 13 days, ELEIN, post-emergence spray; relative to: untreated (0%), complete kill (100%)).
`N#Cc1ccc(-c2ccc(-c3cccs3)o2)cc1F` gave an inhibition of 83% (Salmonella enterica; sodium azide mutagenicity; TA1535; 10 µM, 48 h, together with: sodium azide 2 µg/plate co-exposure).
For `CCCCCCCCCCCCCCCCCCOCC(COP(=O)([O-])OCC[N+](C)(C)C)OC` (stereo not drawn), the IC50 was 18.4 µM (HEK293 expressing MOR; cAMP overshoot, inhibitor, HTRF cAMP; together with: morphine then naloxone).
For `C[C@H](Cn1cnc2c(N)ncnc21)OCP(=O)(O)O`, the inhibition was 100% (human alphaherpesvirus 2; virus production; human monocytes/macrophages; 500 µg/mL, 6 days).
`OC(CNc1ccccc1)Cn1c2ccc(Br)cc2c2cc(Br)ccc21` (stereo not drawn) — result for neurogenesis: “no effect” (middle-aged rat, dentate gyrus; dose not given).
With `CCC(=O)Nc1cncc(C(=O)O)n1` the IC50 was 200 µM (Mycobacterium tuberculosis variant bovis BCG; microbial growth; ATCC35734 BCG; 5 days).
The ED50 of `CCCCCc1cc(O)c2c(c1)OC(C)(C)[C@@H]1CCC(C)=C[C@@H]21` is reported as 1.76 to 2.14 mg/kg (drug discrimination; C57BL/6J mice, both sexes; trained vs vehicle).
`O=S(=O)(c1cccc2c(I)cccc12)N1CCCNCC1` has an efficacy of 61% (HEK293 expressing MOR; morphine-induced cAMP overshoot, HTRF cAMP; 1 µM, together with: NKH 477 25 nM; relative to: morphine control).
With `O=C(O)c1cccnc1` the IC50 was 700 to 900 µM (Mycobacterium tuberculosis variant bovis BCG; microbial growth; ATCC35734 BCG; 5 days).
For `CC(C)c1ccc2c(c1)CC[C@H]1[C@](C)(CN)CCC[C@]21C`, the IC50 was 1.47 µM (SK-MEL-24; cell growth or viability, MTS; 72 h).
With `O=C(O)c1nccnc1NCc1ccccc1` the IC50 was 200 µM (Mycobacterium tuberculosis variant bovis BCG; microbial growth; ATCC35734 BCG; 5 days).
`CCC1(c2ccccc2)C(=O)NC(=O)NC1=O`: “minimal effective dose” 100 mg/kg (hind limb tonic extension; albino mouse, MES-induced seizure; ip, 4.0 h).

Excerpt of the above:
The ED50 of `CCCCCc1cc(O)c2c(c1)OC(C)(C)[C@@H]1CCC(C)=C[C@@H]21` is reported as 1.76 to 2.14 mg/kg (drug discrimination; C57BL/6J mice, both sexes; trained vs vehicle).
`O=S(=O)(c1cccc2c(I)cccc12)N1CCCNCC1` has an efficacy of 61% (HEK293 expressing MOR; morphine-induced cAMP overshoot, HTRF cAMP; 1 µM, together with: NKH 477 25 nM; relative to: morphine control).
